Assay results from different studies.
Parts stem from different laboratories: compare values within a part only. Positions count from the first letter of the parent shown.

Block 1 — method: protein binding microarray; form: double-stranded DNA, one strand shown; matrix: in vitro; concentration: not given; baseline: not given; direction: higher = stronger binding
Target: Histone acetyltransferase KAT6A, winged helix 2, GST fusion (KAT6A, Homo sapiens, UniProt Q92794, residues 85-181)
Setting: 8-mer, flanks averaged, mean of 2 arrays, mostly near background
Residues (chain): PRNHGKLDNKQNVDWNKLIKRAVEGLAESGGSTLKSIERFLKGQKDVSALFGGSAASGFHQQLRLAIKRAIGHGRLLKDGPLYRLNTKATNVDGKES
With `CAAGTCGG` the E-score was -0.11.
`ATTCGTGG` gave an E-score of 0.0155.
`CTTTGTGA` has an E-score of 0.0516.
`ATGAAACA` gave an E-score of 0.0417.
`AGGAAAGG` gave an E-score of -0.0192.
For `TATGTTCA`, the E-score was 0.00481.
`CTCCGTAA` gave an E-score of -0.094.
With `CAAGCATG` the E-score was 0.0499.
`CCACGCTA` has an E-score of -0.135.
The E-score of `AAATTCAG` is reported as 0.138.
`AACCAAGA` gave an E-score of 0.156.
With `AGCAACCT` the E-score was -0.0265.
For `CCGAGCCG`, the E-score was 0.158.
`CAGGCTCG` has an E-score of 0.082.
`ACGGCTGC` gave an E-score of -0.0131.
The E-score of `AGAAAGCG` is reported as 0.034.
`ATATTAAT` has an E-score of 0.192.
`ATGTACAG` has an E-score of -0.203.
The E-score of `CCCCAGAC` is reported as -0.0157.
`CATGCAAG` has an E-score of -0.0352.
`AATTGACT` has an E-score of 0.00248.
For `GGAAGACC`, the E-score was 0.00897.
`GGAAAAAC` gave an E-score of -0.148.
With `ACCCCAAT` the E-score was -0.279.
With `GGTGGTCA` the E-score was -0.156.

Block 2 — method: DHFR PCA, deep sequencing; matrix: yeast; together with: (+)-ABA 17 µM; baseline: wild-type fitted maximum; direction: higher = stronger binding
Target: ABI1, truncated, D143A, DHFR fusion (Arabidopsis thaliana)
Setting: methotrexate growth selection, single substitutions
Starting sequence: PYL1, truncated, DHFR fusion (Arabidopsis thaliana); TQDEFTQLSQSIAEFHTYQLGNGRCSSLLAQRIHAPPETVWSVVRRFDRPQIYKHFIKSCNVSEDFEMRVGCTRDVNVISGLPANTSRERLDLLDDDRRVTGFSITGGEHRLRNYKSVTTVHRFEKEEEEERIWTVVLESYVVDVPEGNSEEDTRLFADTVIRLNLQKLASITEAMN
Under “relative binding score”, `Q7R` is recorded as 80.6%.
`F47T` — result for “relative binding score”: -10.5%.
Under “relative binding score”, `A13V` is recorded as 73.9%.
For `R99E`, “relative binding score” read -11.8%.
`V40N`: “relative binding score” -17.7%.
Under “relative binding score”, `L29E` is recorded as -4.77%.
`E38Y`: “relative binding score” 16.5%.
Under “relative binding score”, `A30H` is recorded as 84.7%.
Under “relative binding score”, `T17C` is recorded as 62.7%.
Under “relative binding score”, `L8R` is recorded as 31.2%.
For `R32S`, “relative binding score” read 73.3%.
Under “relative binding score”, `R49Q` is recorded as 94.2%.

Block 3 — method: RNA Bind-n-Seq; form: RNA; matrix: in vitro; concentration: 365 nM; baseline: no-protein control; direction: higher = stronger binding
Target: RNA binding protein fox-1 homolog 2, RRM domain, GST-SBP tag (RBFOX2, Homo sapiens, UniProt O43251-10, residues 100-194)
Setting: natural RNA segment, single round, ends assumed
All sequences stand within: GGGAGUUCUACAGUCCGACGAUC … UGGAAUUCUCGGGUGCCAA
Residues (chain): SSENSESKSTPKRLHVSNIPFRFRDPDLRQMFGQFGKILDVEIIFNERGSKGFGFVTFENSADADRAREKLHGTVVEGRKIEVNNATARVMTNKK
For `CAGGCAGCCUAGCCCAGCCCAGGGCACAUGGCAAGAGGGACUGGACCCACCUUUGGGUGAUGGGUGCCUUAGGUCCCCAGCAGCUGUACAGAAGGGGCUCUUCUCUCCAC`, “RBNS enrichment (R)” read 0.234.
`GUCCUUAGACCAUCUUCCUACAUUACCUGGAAGGGAGCUGCCAUCUGUCCCUCUGCAGAGGGAUACCUUCCAAUAGUAAAUUAUCUGGUUCCUCACUGAAACAAGUUAUU` — result for “RBNS enrichment (R)”: 0.439.
`GUCCCGAGUGGGGGCCGUGCCUUUGCCCAGACCCUGCACUUUCAACCAGGCCAGUCCGGCUCUGGGGAGCAGGGGCCUCCCCGGCAACAGCCCCAGGGGCCUUGAGGGUC`: “RBNS enrichment (R)” 0.36.
`UACUGUGAACAUUCGAAUGCAUCUGUGGCCUUCGCCUCCCCAGCUGCCCUGUCCCUCCUUGGAAACAGCAGCUUUGCCGAGGGCUCCCCAGCUUCCAUCUCAGGAGACCA`: “RBNS enrichment (R)” 0.466.
Under “RBNS enrichment (R)”, `CAGGAACCCUGAUGAGCCCUCACGUGCCUGUCCUUGACCAAGGUGACUUUUAUGCUGUGGCAACUGUGACAGGCUAUUUUUUAGCAAAGAGUUAGACGUUUGUUAUCAUG` is recorded as 0.462.
`CGUUCAAGUUCUAGUGAGCAACAUGUUCAACAACCGCCAGCACAGCAACCUGGCCAGCCUGAGGUCUUCCAGGAGAUGCUGUCCAUGCUGGGAGAUCAGAGCAACAGCUA`: “RBNS enrichment (R)” 0.266.
`GGUUGGGAACAUAGCCAUGAGUGCCCCUCGUGGGUGGGGCGCCAGUCUGUCAUUGACCUCAUUGUGUCAGCACCUUCCCCUCAAGGAGGCUGACCCUGCCCUGCCAGCUG`: “RBNS enrichment (R)” 0.423.
For `GAGGGUUCCCGGCCUGCAGGUGCUCUUUCCUCUUGGUCCCAAGCAUCUGUGCAGGGUCGUGGGAGCCACACUGAGAGACUUGUGUGGGCCAGACAAGCUUCAUUCUGAUG`, “RBNS enrichment (R)” read 0.337.
`UGCUGCCUCUAGACCUCGCCCACGUGGACAGACGCUUCCUGUCAUGGCUCUGCCUAGAGAUGUUCCUUGGGGUCUGUGAGGUUCUGUCAACUGCUAGUGCUAACGCUGUC`: “RBNS enrichment (R)” 0.62.
`UCGAAAAUGACAAAUGCAACAGCGAGCCCUUUGUGUCCAGCUAAGCUAAAGUCUCCUCAGUGUGCAGCCAGAUUCCUGGGGACUGCUGAGUGUGGUUACAGGCUGCAUUU`: “RBNS enrichment (R)” 0.349.
Under “RBNS enrichment (R)”, `AAGAUUUGCUGAUGCCAGACGAUCUACCCCAGCAUGUGAAUGCAUAAUGGACAUUGCCAUCUCUGCCCUUUGGUCCUCCUUGCUUCUCUCCAUACAAUAAGACACCUCCG` is recorded as 6.39.
For `AAGGCAGAGGGGAGCUUGAGGGACAAUGCCACUAUAGUUUAAUACUCAGAGGGGGUUGGGUUUGGGGACAUAAAGCCUCUGACUCAAACUCCUCCCUUUUAUCUUCUAGC`, “RBNS enrichment (R)” read 0.408.

Block 4 — method: protein-binding microarray; form: double-stranded DNA, one strand shown; matrix: in vitro; concentration: 250 nM; setting: 60-bp whole probe; together with: salmon DNA 0.4 mg/ml; baseline: random background probes; direction: higher = stronger binding; all sequences stand within: GCCTAGCAC … GTCTTGATTCGCTTGACGCTGCTG
Target: Interferon regulatory factor 5, full length, phosphomimetic (IRF5, Homo sapiens, UniProt Q13568-2, residues 1-514, K96S/S451D/S453D/S456D/S462D)
The log fluorescence of `AGATGAAAAGTGAAGCCTAGGTGCTAG` is reported as 0.159 z-score.
`GACGATTTCAGTTTCGAGACGTGCTAG` has a log fluorescence of 7.32 z-score.
`GCCATTATGAGTCTTGAAGAGTGCTAG` gave a log fluorescence of -0.429 z-score.
With `GACGGACTGGGTATCCGGACGTGCTAG` the log fluorescence was -0.428 z-score.
With `TTTGATTTCGGGTTTCGATTAGTGCTA` the log fluorescence was 9.27 z-score.
For `GACAGACTGCTTTTCCTGACGTGCTAG`, the log fluorescence was -0.0154 z-score.
For `GACGGACTGATACTGCTGACGTGCTAG`, the log fluorescence was -0.0827 z-score.
With `TTAGGTTTAGGGTATCGGTTAGTGCTA` the log fluorescence was 2.38 z-score.
`GTCGGTATCCTTCTCCTGACGTGCTAG` has a log fluorescence of 0.605 z-score.
The log fluorescence of `TTAGATTTCAGTCTCGCTTAGTGCTAG` is reported as 2.2 z-score.
For `GACAAACTGGGGTATCGAGACGTGCTA`, the log fluorescence was 0.404 z-score.
`GACGGTCTCGGCATCGGGACGTGCTAG` has a log fluorescence of -0.0853 z-score.
For `GACGGAATCGGTCTCGGGACGTGCTAG`, the log fluorescence was 0.172 z-score.
The log fluorescence of `CCTCAGCTCCCTTTCTCTCTGTGCTAG` is reported as 0.231 z-score.
For `GACGAACTGGGGTTTCGAGACGTGCTA`, the log fluorescence was 1.13 z-score.
With `TTAGGTATCCGTCTCGGTTAGTGCTAG` the log fluorescence was 0.711 z-score.
`GACGATTTCAGTTCCGAGAAGTGCTAG` gave a log fluorescence of 1.54 z-score.
`TTGGAACTGGGGTTTCGATTAGTGCTA` gave a log fluorescence of 5.43 z-score.

Block 5 — target: CCNB2, cyclin fold, Cln2 fusion (human); method: yeast growth competition, sequencing; matrix: yeast; setting: weak parent motif; baseline: not given; direction: higher = stronger binding
Starting sequence: INSM1 docking peptide (human); PKAIRKLHFEDEV; partner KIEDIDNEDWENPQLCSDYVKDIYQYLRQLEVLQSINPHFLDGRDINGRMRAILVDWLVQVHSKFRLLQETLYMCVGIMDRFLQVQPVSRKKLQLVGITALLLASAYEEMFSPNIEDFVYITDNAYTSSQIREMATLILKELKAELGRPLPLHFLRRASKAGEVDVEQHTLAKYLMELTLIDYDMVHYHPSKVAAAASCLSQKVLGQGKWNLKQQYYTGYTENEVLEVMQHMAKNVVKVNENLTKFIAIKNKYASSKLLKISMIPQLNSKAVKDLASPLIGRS
Under “normalised enrichment score”, `K2F` is recorded as 0.0673.
`L7A`: “normalised enrichment score” 0.532.
For `E10L`, “normalised enrichment score” read 0.0499.
Under “normalised enrichment score”, `I4H` is recorded as -0.00686.
`A3G` — result for “normalised enrichment score”: -0.0323.
`R5Y` — result for “normalised enrichment score”: 0.288.
`F9W` — result for “normalised enrichment score”: 0.895.
Under “normalised enrichment score”, `K2D` is recorded as 0.189.
For `K2S`, “normalised enrichment score” read 0.736.
`F9I`: “normalised enrichment score” 0.0598.
Under “normalised enrichment score”, `K2P` is recorded as 0.00298.
`K2C`: “normalised enrichment score” 0.316.
Under “normalised enrichment score”, `F9A` is recorded as -0.255.
`E12V` — result for “normalised enrichment score”: 0.215.
`A3C` — result for “normalised enrichment score”: 0.701.
For `R5Q`, “normalised enrichment score” read 0.00144.
`A3R` — result for “normalised enrichment score”: 0.794.

Block 6 — method: protein-binding microarray; form: double-stranded DNA, one strand shown; matrix: in vitro; concentration: not given; direction: higher = stronger binding
Target: Hepatocyte nuclear factor 3-beta, forkhead domain (FOXA2, Homo sapiens, UniProt Q9Y261, residues 142-269)
Setting: k-mer, scored over probes, only values ≥0.25
Residues (chain): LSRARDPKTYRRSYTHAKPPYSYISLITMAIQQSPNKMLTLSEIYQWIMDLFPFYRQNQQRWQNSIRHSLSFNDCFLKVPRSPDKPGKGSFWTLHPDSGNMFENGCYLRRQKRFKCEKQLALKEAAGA
`CATTATTA` has an E-score of 0.27.
`TATGTCAA` has an E-score of 0.368.
For `ATAAATGA`, the E-score was 0.253.
`AACAATGA` has an E-score of 0.284.
`TATATTGA` gave an E-score of 0.348.
The E-score of `ACTGTAGA` is reported as 0.264.
With `AATAAGAC` the E-score was 0.362.
`GTTATTCA` gave an E-score of 0.324.
The E-score of `CTCTTATA` is reported as 0.291.
With `AAGTATAT` the E-score was 0.31.
With `TACGTATA` the E-score was 0.275.
With `TACGTAAA` the E-score was 0.315.
`ATCATAAC` gave an E-score of 0.316.
For `TAAGTATA`, the E-score was 0.295.
For `AATACATG`, the E-score was 0.279.
